Measurements gathered from unrelated publications.
Numbered parts are unrelated; each lists some results of a single study.

Block 1
Target: Centromere-binding protein 1, full length, His-tagged (CBF1, Saccharomyces cerevisiae, UniProt P17106, residues 1-351)
Chain of UniProt P17106 (whole entry, looked up): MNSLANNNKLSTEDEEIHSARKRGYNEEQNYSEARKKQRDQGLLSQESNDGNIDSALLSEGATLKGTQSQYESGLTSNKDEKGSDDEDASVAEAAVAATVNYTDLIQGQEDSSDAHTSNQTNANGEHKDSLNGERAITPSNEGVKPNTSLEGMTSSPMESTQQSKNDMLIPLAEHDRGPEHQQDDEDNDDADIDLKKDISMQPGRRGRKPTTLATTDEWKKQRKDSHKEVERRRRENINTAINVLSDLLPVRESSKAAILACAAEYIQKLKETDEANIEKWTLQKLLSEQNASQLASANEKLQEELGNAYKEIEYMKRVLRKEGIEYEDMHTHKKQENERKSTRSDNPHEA
Method: competition protein-binding microarray
Form: double-stranded DNA, one strand shown
Sample: in vitro
Tested at: 2 µM
Notes: whole 60-bp probe, lowest competitor level
Added: Pho4 competitor, 0.05 µM
Direction: higher = stronger binding
Endpoint: fluorescence intensity
Constant ends, left off below: … GTCTTGATTCGCTTGACGCTGCTG
CCGGTCAAGGTCTGGCACGTGGAGTCCAGGACATCC: 823 a.u.
AGCAACCTTCTTGGCACCGTGCTTTTTGGCGACCTT: 52.9 a.u.
CGGGGTTAAGTTTGATCGGTGGGTGGCTTGCAGCAG: 80 a.u.
GTCTTGTCTCATTGACTCGTGGGTGTCCCCACTTCA: 84.1 a.u.
GTCTTGTCTCATTGATTTGTGGGTGTCCCCACTTCA: 82.4 a.u.
TGTGTCCGGAGAAACCTCGTGCGGAAAACAGCGCAA: 94.4 a.u.
AAAGCGGTAATTTGATTAGTGGGTGCAGATATCTAT: 76.9 a.u.
TTCTACTATCCGTGAAGCGTGACGGGCCCTTCTCAA: 120 a.u.
CTAACGAAGGTTTGTACTGTGGGTGACAAGCCAAGT: 72.5 a.u.
AGTCCCAATACCTCTCACGTTTTGGGGGAATAGTTC: 206 a.u.
CATACCCAACCTTGGGAGGTGGGTGAAGATATTTGT: 50.9 a.u.
CATGTTTTGCCCGAAATCGTGCCAGTGATAAATCGG: 96.2 a.u.
ATAGCTCAAGTACTGTTCGTGGGTACCTTAAGCCTG: 115 a.u.
TTGGTGAGCATTACCTACGTGTTGGGCACTACAACA: 75.3 a.u.

Block 2
Target: Sal-like protein 4, full length isoform A (SALL4, Homo sapiens, UniProt Q9UJQ4, residues 1-1053)
Chain of UniProt Q9UJQ4 (whole entry, looked up): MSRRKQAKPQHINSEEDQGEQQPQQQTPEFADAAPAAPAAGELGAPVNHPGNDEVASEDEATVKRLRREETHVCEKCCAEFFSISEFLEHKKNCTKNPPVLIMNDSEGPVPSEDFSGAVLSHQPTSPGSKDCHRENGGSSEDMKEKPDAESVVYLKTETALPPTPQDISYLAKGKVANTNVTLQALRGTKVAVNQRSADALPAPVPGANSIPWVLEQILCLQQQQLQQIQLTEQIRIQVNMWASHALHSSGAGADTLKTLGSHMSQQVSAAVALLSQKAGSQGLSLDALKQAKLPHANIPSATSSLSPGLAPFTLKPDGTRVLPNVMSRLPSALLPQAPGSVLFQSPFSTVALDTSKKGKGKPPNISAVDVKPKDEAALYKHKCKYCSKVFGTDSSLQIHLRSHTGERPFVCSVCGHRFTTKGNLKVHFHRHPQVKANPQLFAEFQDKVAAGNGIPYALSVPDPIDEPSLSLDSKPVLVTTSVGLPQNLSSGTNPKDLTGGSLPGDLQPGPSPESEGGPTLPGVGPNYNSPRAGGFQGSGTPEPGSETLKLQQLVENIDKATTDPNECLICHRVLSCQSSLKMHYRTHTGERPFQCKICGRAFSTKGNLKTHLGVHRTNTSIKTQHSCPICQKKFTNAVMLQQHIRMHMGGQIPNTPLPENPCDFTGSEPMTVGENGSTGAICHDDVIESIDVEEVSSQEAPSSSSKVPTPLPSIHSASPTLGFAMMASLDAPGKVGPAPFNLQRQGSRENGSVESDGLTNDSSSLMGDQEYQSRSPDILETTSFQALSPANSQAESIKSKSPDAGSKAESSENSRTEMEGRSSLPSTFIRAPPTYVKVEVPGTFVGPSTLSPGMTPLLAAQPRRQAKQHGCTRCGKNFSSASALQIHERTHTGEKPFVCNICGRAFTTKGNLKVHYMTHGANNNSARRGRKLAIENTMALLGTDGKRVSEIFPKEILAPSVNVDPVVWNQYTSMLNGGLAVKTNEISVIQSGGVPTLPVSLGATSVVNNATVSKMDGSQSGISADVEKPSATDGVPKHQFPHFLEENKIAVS
Method: universal PBM
Form: double-stranded DNA, one strand shown
Sample: in vitro
Tested at: 600 nM
Notes: 8-mer, flanks averaged, mean of replicates
Direction: higher = stronger binding
Endpoint: E-score
TAGAATAA: 0.345
ATATTCCA: 0.368
ACTACTCG: 0.0444
CCCCGCCG: -0.357
ATCCTGCG: -0.151
AGGTTCAC: -0.165
CCCCCGAG: -0.261
AAGAATAT: 0.303
CGTAGTTC: -0.161
CCCTGTCG: -0.298
AAGTCGCG: -0.0693
CCGTCCGA: -0.253

Block 3
Target: Interferon regulatory factor 7, full length, phosphomimetic (IRF7, Homo sapiens, UniProt Q92985, residues 1-503, S101K/S471D/S472D/S475D/S476D/S477D/S483D/S484D/S487D)
Chain of UniProt Q92985 (whole entry, unmodified, looked up): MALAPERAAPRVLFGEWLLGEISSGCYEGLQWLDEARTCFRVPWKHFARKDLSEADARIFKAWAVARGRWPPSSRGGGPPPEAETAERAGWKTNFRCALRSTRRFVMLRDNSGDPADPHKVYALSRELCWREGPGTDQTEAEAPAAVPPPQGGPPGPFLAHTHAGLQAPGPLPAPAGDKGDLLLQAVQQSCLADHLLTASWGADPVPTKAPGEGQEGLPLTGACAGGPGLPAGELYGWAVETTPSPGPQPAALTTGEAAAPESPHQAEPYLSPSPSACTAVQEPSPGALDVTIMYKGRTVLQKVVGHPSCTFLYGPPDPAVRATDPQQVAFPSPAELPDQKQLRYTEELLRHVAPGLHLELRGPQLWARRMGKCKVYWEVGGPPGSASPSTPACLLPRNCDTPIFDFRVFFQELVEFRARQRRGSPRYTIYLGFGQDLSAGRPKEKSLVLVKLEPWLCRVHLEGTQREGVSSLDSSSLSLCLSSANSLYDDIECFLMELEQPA
Method: protein-binding microarray
Form: double-stranded DNA, one strand shown
Sample: in vitro
Tested at: 250 nM
Notes: 60-bp whole probe
Added: salmon DNA 0.4 mg/ml
Baseline: random background probes
Direction: higher = stronger binding
Endpoint: log fluorescence
Constant ends, left off below: GCCTAGCAC … GTCTTGATTCGCTTGACGCTGCTG
CTTATTCTCTACTTGTGTCTGTGCTAG: 2.46 z-score
TTAGGTTTCCTTTCGCTTTAGTGCTAG: 7.48 z-score
AATGATTGGTTGAACATGAAGTGCTAG: -0.42 z-score
GTCGGACTGCTACTGCTGACGTGCTAG: -0.504 z-score
TCATGAATGCCCTTCCATACTGTGCTA: -0.343 z-score
TTTGCTTTCCTGATGGTCTTGTGCTAG: 0.421 z-score
TTAGGATTGCTTTTCCTTTAGTGCTAG: 1.08 z-score
TTAGATTTAAGTTCCGATTAGTGCTAG: 1.3 z-score
GACGGACTTCTACTGCTGACGTGCTAG: -0.248 z-score
GACGGTTTCGGGTATCGCGACGTGCTA: 7.12 z-score
GACGGTCTCGGTATCGGAACGTGCTAG: 2.63 z-score

Other studies, line by line
PhoQ, residues 284 288 289 292 302 303 SMYGEC  fold induction (PhoP, residues 12 14 15 18 19 VGHWL (Escherichia coli, UniProt P23836); Sort-seq, item: YFP reporter; E. coli; PhoQ-PhoP variant library, added: 10 µM Mg2+; baseline: high Mg2+ state, higher = stronger signaling): 15
